Experimental data of several laboratories.
Parts stem from different laboratories: compare values within a part only. Substitutions count along the parent as printed.
Chain of UniProt P54753 (whole entry, looked up): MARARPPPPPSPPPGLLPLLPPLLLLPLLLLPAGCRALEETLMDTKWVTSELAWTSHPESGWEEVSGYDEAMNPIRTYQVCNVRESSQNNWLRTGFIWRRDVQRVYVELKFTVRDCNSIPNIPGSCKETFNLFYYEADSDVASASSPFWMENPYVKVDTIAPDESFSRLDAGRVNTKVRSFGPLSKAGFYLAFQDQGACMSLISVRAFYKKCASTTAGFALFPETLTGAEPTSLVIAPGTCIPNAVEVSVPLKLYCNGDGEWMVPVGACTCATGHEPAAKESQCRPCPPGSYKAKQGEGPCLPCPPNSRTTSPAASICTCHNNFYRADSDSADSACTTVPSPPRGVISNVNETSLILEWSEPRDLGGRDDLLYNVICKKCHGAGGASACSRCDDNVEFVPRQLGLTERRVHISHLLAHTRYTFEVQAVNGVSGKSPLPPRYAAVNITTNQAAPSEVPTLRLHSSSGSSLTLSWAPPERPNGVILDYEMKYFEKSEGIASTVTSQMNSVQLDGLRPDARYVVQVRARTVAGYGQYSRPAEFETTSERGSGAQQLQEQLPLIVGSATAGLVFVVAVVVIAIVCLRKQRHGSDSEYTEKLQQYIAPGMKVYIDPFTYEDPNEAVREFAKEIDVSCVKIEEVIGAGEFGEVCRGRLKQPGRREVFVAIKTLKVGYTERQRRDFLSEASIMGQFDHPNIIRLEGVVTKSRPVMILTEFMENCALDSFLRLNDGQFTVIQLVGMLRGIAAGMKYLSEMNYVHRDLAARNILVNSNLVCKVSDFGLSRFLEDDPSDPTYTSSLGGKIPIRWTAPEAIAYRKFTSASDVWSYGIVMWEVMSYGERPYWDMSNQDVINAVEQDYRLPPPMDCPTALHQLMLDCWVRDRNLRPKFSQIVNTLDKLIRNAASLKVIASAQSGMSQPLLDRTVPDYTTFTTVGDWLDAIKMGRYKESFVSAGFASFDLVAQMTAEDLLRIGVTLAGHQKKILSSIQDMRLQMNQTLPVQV

Block 1
Target: Interferon regulatory factor 3, full length, phosphomimetic (IRF3, Homo sapiens, UniProt Q14653, residues 1-427, S386D/S396D/S398D/S402D/T404D/S405D)
Method: protein-binding microarray
Form: double-stranded DNA, one strand shown
Medium: in vitro
Concentration: 2540 nM top
Notes: 60-bp whole probe
Added: salmon DNA 0.4 mg/ml
Relative to: random background probes
Direction: higher = stronger binding
Constant ends, left off below: GCCTAGCAC … GTCTTGATTCGCTTGACGCTGCTG
Residues (chain): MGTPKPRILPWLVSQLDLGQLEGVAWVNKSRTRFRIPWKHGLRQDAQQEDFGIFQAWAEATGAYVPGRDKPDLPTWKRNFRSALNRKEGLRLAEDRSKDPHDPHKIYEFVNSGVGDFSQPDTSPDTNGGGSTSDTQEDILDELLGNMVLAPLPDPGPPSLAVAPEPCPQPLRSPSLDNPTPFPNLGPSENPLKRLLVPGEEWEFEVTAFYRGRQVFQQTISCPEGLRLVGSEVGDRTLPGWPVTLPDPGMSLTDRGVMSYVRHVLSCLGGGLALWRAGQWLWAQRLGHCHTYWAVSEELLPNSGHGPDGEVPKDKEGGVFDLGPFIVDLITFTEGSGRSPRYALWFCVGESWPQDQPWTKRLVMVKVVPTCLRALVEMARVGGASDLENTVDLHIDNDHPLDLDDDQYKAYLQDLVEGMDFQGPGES
`GACGGTCTCCTACTGCTAACGTGCTAG` — result for “fitted relative affinity”: 1.25 z-score.
For `TCAATTCTAGCCTATAGAACTGTGCTA`, “fitted relative affinity” read 0.38 z-score.
For `TTAGAACTGAGTATCTATTAGTGCTAG`, “fitted relative affinity” read -0.228 z-score.
Under “fitted relative affinity”, `GACGGTTTCGGTTCAGGGACGTGCTAG` is recorded as 9.42 z-score.
`TCACACCTCTAGACTCTAACTGTGCTA` — result for “fitted relative affinity”: 0.0276 z-score.
For `TTAGGTATCGGGTATCGGATAGTGCTA`, “fitted relative affinity” read 1.9 z-score.
Under “fitted relative affinity”, `GACGGTATCGACTCTCGGGACGTGCTA` is recorded as 1.3 z-score.
Under “fitted relative affinity”, `TTAGATATTAAACTGATAGGGTGCTAG` is recorded as -0.158 z-score.

Block 2
Target: Ras GTPase-activating protein-binding protein 1, C-terminal RGG region (G3BP1, Homo sapiens, UniProt Q13283)
Chain of UniProt Q13283 (whole entry, looked up): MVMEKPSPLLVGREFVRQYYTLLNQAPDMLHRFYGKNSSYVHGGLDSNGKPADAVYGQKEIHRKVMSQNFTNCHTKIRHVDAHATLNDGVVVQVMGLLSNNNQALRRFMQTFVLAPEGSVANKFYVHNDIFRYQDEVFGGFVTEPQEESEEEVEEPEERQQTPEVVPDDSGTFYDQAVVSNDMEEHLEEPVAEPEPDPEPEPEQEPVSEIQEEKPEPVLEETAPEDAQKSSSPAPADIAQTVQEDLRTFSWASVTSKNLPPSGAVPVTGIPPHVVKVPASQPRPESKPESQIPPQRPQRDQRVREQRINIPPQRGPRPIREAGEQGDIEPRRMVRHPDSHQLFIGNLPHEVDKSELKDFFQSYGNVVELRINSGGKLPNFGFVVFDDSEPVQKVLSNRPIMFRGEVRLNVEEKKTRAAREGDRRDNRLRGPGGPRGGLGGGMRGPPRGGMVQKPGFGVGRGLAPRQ
Method: RNA Bind-n-Seq
Form: RNA
Medium: in vitro
Concentration: 1 µM
Notes: whole 134-nt RNA, ends assumed
Added: 150 mM KCl
Relative to: input library
Direction: higher = stronger binding
Constant ends, left off below: GGGAGUUCUACAGUCCGACGAUC … UGGAAUUCUCGGGUGUCAAGG
With `CUCAAGUCCUGUGCUACACAUCGUAUGUACCGAAUCGGGUUGGUUGGUUGGGGAAAGUAUUAUGUUACGCCGUUCGGAUCUGCACUUCCA` the log2 enrichment was -0.815.
`UGGCCCUUCCCCUGGAGCCAUGCUGGGCCCUAGCCCGGGUCCCUCGCCGGGCUCCGCCCACAGCAUGAUGGGGCCCAGCCCAGGGCCGCC` gave a log2 enrichment of -0.633.
The log2 enrichment of `GUCCUGUGCUACACAUCGUAUGUACCGAAUCGGGGCCCCCGGGCCCCCGGGCCCCCGGAAAGUAUUAUGUUACGCCGUUCGGAUCUGCAC` is reported as -1.71.
`UGGGAGGUGGAUUUUGUUUAUUUUUUUAGCUCAUUUCCAGGUGUGGGAAUUUUUUUUUAAUAUGUGUCAUGAAUAAAGUUGUUUUUGAAA` has a log2 enrichment of 3.67.
`GCAGGAAGUAAAAACAAAUGGAAAUGCUUCGGAUAGAGGCAGGGGUGGGGGUUGCUAAGGAAAGGGUGGGAUGGGAGUGGGUAAAGAGUU` gave a log2 enrichment of 1.81.
With `CACAGACAACACGCACCCACACAGACACAGAGGGAAGGGGUUGGGAUGGGGACAGGGUGCACAGCAGGGCGGGGUAGGACCCCAGCCCCC` the log2 enrichment was -1.06.
With `AGUCCUGUGCUACACAUCGUAUGUACCGAAUCGGGCCCCGGGGCCCCGGGGCCCCGGAAAGUAUUAUGUUACGCCGUUCGGAUCUGCACU` the log2 enrichment was -2.35.
With `CAAGUCCUGUGCUACACAUCGUAUGUACCGAAUCGGGUUUUUUUGGGAGGGUGGGAAAGUAUUAUGUUACGCCGUUCGGAUCUGCACUUC` the log2 enrichment was 1.19.

Block 3
Target: CEP164, C-terminal peptide (human)
Method: DHFR complementation, deep sequencing
Medium: yeast
Notes: single substitutions, model-inferred values
Relative to: wild type
Direction: higher = weaker binding
Parent: PDZK1, PDZ domain 2 (human); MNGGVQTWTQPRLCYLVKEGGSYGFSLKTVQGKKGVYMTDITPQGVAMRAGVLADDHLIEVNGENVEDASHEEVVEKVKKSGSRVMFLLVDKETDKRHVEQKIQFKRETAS; partner HNRVKVYRF
`K80S`: “binding free energy change” 0.502 kcal/mol.
`K106D`: “binding free energy change” -0.115 kcal/mol.
`K102G`: “binding free energy change” -0.127 kcal/mol.
Under “binding free energy change”, `K96Y` is recorded as -0.0253 kcal/mol.
`I41F`: “binding free energy change” 1.53 kcal/mol.
For `I59E`, “binding free energy change” read 1.72 kcal/mol.
Under “binding free energy change”, `K33P` is recorded as 0.814 kcal/mol.
Under “binding free energy change”, `T42G` is recorded as 0.853 kcal/mol.

Further values, each from its own experiment
`Nc1[nH]nc2nc3ccccc3nc12` has a remaining activity of 90.3% (Ephrin type-B receptor 3 (EPHB3, Homo sapiens, UniProt P54753); enzyme activity, inhibitor; 0.5 µM; relative to: control).

For quick reference, copied from above (block 3):
For `I59E`, “binding free energy change” read 1.72 kcal/mol.
Under “binding free energy change”, `K33P` is recorded as 0.814 kcal/mol.
